Measured values from different studies.
Each numbered part is a random draw from the data of one study; scales do not carry over between parts. ± gives the spread as reported.

Series 1
Compound: Cc1cc(OCc2nnc(SC3CCCC3)n2-c2cccnc2)ccc1-c1ccc(S(C)(=O)=O)cc1
It gave 9.22 µM for CC50 (NCI-H226).
SW-620 — CC50: 88.6 µM.
It gave over 100 µM for CC50 (HOP-62).

Further values, each from its own experiment
EPHX2: Bifunctional epoxide hydrolase 2 (EPHX2, Homo sapiens, UniProt P34913)
Chain of UniProt P34913 (whole entry, looked up): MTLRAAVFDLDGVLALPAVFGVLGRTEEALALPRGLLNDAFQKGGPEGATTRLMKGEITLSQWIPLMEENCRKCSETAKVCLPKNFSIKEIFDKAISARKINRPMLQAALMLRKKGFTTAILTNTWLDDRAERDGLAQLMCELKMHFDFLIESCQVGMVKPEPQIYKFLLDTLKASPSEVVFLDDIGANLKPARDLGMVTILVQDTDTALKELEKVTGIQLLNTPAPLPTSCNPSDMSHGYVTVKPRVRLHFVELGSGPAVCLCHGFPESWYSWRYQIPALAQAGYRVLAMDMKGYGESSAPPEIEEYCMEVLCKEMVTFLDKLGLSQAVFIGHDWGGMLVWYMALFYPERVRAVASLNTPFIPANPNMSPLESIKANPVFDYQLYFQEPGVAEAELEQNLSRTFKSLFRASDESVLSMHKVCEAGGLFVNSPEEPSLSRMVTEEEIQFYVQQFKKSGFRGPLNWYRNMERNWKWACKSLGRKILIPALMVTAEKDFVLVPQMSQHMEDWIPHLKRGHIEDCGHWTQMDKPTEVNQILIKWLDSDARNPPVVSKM
For `pyc (Rhizobium etli, UniProt Q2K340)`, the kcat/Km was 15.5 ± 0.333 M⁻¹ s⁻¹ (NC(=O)OP(=O)(O)O; steady-state kinetics; pH 7.5, 25 °C, apparent).
`Cc1ccc(S(=O)(=O)Nc2c(N3CCC(NC(=O)Nc4cc(F)cc(F)c4)CC3)c(=O)c2=O)cc1` gave an IC50 of 0.294 ± 0.0301 µM (EPHX2).
For `O=C(Nc1ccc(-c2cnc3ccccc3c2)cc1)C1CCN(Cc2ccc([N+](=O)[O-])cc2)CC1`, the IC50 was 0.0364 µM (EPHX2).

Repeated from above (further values, each from its own experiment):
For `pyc (Rhizobium etli, UniProt Q2K340)`, the kcat/Km was 15.5 ± 0.333 M⁻¹ s⁻¹ (NC(=O)OP(=O)(O)O; steady-state kinetics; pH 7.5, 25 °C, apparent).
